Experimental data collected from several papers.
± gives the spread as reported.

SMILES	cell line	test	system	setting	IC50
CC(C)Oc1ccc(S(=O)(=O)c2ccc(Oc3ccc(C(=O)C(Cl)Cl)cc3[N+](=O)[O-])cc2)cc1	NCI-H1650	cell growth or viability, MTT	–	72 h	0.33 to 0.88 µM
CC1=C2[O][Ru-]([Cl])[O+]=C2C=CN1CCCN1C=CC2=[O+][Ru-]([Cl])[O]C2=C1C.Cc1ccc(C(C)C)cc1.Cc1ccc(C(C)C)cc1	SISO	cell growth or viability, crystal violet	–	96 h	21.2 µM
CCn1cc(/C=C/c2sc3ccccc3[n+]2CC)c2ccccc21	HFF	cell growth or viability, MTT	–	24 h	> 20 µM
C=CC(=C)CC[C@]1(C)[C@H](C)CC[C@@]23C(=C[C@H](OC(=O)CCCCC)C[C@@H]12)[C@@H](OC(C)=O)O[C@H]3OC(C)=O	KB	cell growth or viability, SRB	–	–	0.56 µM
N=C(N/N=C/c1ccc2ccc3cccc4ccc1c2c34)N/N=C/c1ccc2ccc3cccc4ccc1c2c34	KP-4	cell growth or viability, crystal violet	–	72 h	163 µM
CCOP(=O)(OCC)C(Cc1c(F)c(F)c(Sc2ccc(OC)cc2)c(F)c1F)Nc1ccccc1 (stereo not shown)	T98G	cell growth or viability, MTT	–	48 h	36.8 µM
CC(=O)O[C@@H]1CC[C@@]2(C)[C@@H](CC[C@]3(C)[C@@H]2C(=O)C=C2[C@@H]4[C@@H](C)[C@H](C)CC[C@]4(C)CC[C@]23C)[C@@]1(C)C(=O)NCCNC(=O)CCCCC[P+](c1ccccc1)(c1ccccc1)c1ccccc1	HBE	cell growth or viability, MTT	–	48 h	> 30 µM
N=C(N/N=C/c1cc2ccccc2[nH]1)N/N=C/c1cc2ccccc2[nH]1	KP-4	cell growth or viability, crystal violet	–	72 h	4.9 µM
COC(=O)[C@@]1(C)C=C(C(=O)Nc2cccc(C(=O)Nc3ccc(Nc4nccc(-c5cccnc5)n4)c(C)c3)c2)C(=O)CC1	SH-SY5Y MKK7 inducible	c-Jun Ser63 phosphorylation, inhibitor, HTRF, refers to: phospho-c-Jun Ser63	–	6 h, together with: doxycycline	~0.1 µM
COc1c(O)cc2oc3c(Br)c(O)c(CC=C(C)C)c(O)c3c(=O)c2c1CC=C(C)C	SW480	cell growth or viability	–	48 h	> 40 µM
COc1cc(/C=C/c2cc(C)n[nH]2)ccc1O	mouse Splenic lymphocyte	cell growth or viability, MTT	–	48 h	75 µM
COc1ccc2cc3[n+](cc2c1OCc1cn(Cc2c(Cl)cccc2Cl)nn1)CCc1cc2c(cc1-3)OCO2	SW1990	cell growth or viability, MTT	–	–	22.8 µM
CC(=O)O[C@@H]1CC[C@@]2(C)[C@@H](CC[C@]3(C)[C@@H]2C(=O)C=C2[C@@H]4[C@@H](C)[C@H](C)CC[C@]4(C)CC[C@]23C)[C@@]1(C)C(=O)NCCNC(=O)CCCCCCCCCC[P+](c1ccccc1)(c1ccccc1)c1ccccc1	HBE	cell growth or viability, MTT	–	48 h	2.44 µM
N#C/C(=C\c1cn(-c2ccccc2)nc1-c1cccc(Cl)c1)c1nc2ccccc2[nH]1	SW1990	cell growth or viability, ATP luminescence	–	72 h	70.3 µM
Cc1cc(N)c2cc(NC(=O)CCCC(=O)Nc3ccc4nc(C)cc(N)c4c3)ccc2n1	CHO wild type	FGF2 binding to heparan sulfate, inhibitor, flow cytometry	–	on ice, together with: biotinylated FGF2 2.5 nM	61.5 ± 0.7 µM
N=C(N)NCCC[C@H](N)C(=O)N[C@H](CC(=O)N[C@@H](CC(=O)O)C(=O)O)c1cccc2ccccc12	MCF-7 (no HER2 overexpression)	–	–	–	> 50 µM
C=C[CH2][Pd-]([Cl])[Cl].CC(C)c1cccc(C(C)C)c1-n1c[n+](-c2c(C(C)C)cccc2C(C)C)c2c1-c1cccc3cccc-2c13	2008 spheroids	cell viability, APH	3D spheroids	72 h	27 ± 7 µM
CC(=O)O[C@H]1OC[C@@H]2C=C([C@@]3(C)CCCC(C)(C)C3)CC[C@H]12	human T lymphocytes	interleukin-2 release, inhibitor, ELISA	–	pre-treated 2 h, together with: concanavalin A 50 µg/mL 48 h	0.12 µM
C=CC(OC(C)=O)c1ccc(OC(C)=O)c(OC)c1 (stereo not shown)	HSC-4	cell growth or viability, MTT	–	24 h	5.1 µM
COc1ccc2cc3[n+](cc2c1OCc1cn(Cc2ccccc2C#N)nn1)CCc1cc2c(cc1-3)OCO2	SW1990	cell growth or viability, MTT	–	–	81 µM

SMILES	cell line	test	system	setting	IC50
C=C1C2C(OC(=O)c3ccccc3)C3C4N(C)C5C(O)C3(C1O)C(C2OC(C)=O)C41C(OC(C)=O)C(OC(=O)c2ccccc2)CC(C)(C=O)C51 (stereo not shown)	HBE	cell growth or viability, MTT	–	–	43.7 µM
COc1ccc(C[C@H]2COC(=O)[C@@H]2Cc2ccc(OCCCCCCCC(=O)NO)c(OC)c2)cc1OC	Kasumi 1	cell growth or viability, CCK-8	–	48 h	> 5 µM
CCNc1cc2c(cc1C)C1(c3cc(C)c(NCC)cc3O2)c2ccccc2C(=O)N1N=Cc1c[c-]c(-c2ccccn2)cc1.Cc1c(C)c(-c2ccc(-c3ccccc3)cc2)[c-](C)c1C.[Cl-].[Ir+3]	A549 human cancer cells	cell growth, MTT	–	24 h	23.2 ± 3.6 µM
CCCCCCCC(=O)NCCNC(=O)[C@]1(C)[C@@H]2CC[C@]3(C)[C@H](C(=O)C=C4[C@@H]5[C@@H](C)[C@H](C)CC[C@]5(C)CC[C@]43C)[C@@]2(C)CC[C@H]1OC(C)=O	HBE	cell growth or viability, MTT	–	48 h	4.89 µM
COc1ccc2cc3[n+](cc2c1OCc1cn(Cc2ccc(F)cc2Br)nn1)CCc1cc2c(cc1-3)OCO2	SW1990	cell growth or viability, MTT	–	–	44.2 µM
Cc1cc(C#N)cc(C)c1Oc1cc(Nc2ccc(C#N)cn2)nc2ccncc12	HuCC-A1	–	–	48 h	> 127 µM
C=CCc1cc(OC)c(OC(C)=O)c(OC)c1	HSC-4	MTT	–	24 h	> 50 µM
N=C(N)NCCC[C@H](N)C(=O)N1CCC[C@H]1C(=O)N[C@H](CC(=O)N[C@@H](Cc1ccc(O)cc1)C(=O)O)c1cccc2ccccc12	MCF-7 (no HER2 overexpression)	–	–	–	> 50 µM
CC(C)Cc1ccc(C(C)C(=O)[O][Pt]([NH2])([NH2])([Cl])([Cl])[O]C(=O)CCCc2ccccc2)cc1 (stereo not shown)	BCPAP	cell growth or viability, MTT	–	72 h	0.08 µM
COC(=O)[C@H]1[C@H]2CCN(CC[C@]3(O)C(=O)Nc4cc(OC)ccc43)C[C@H]2C[C@@H](OC(=O)c2cc(OC)c(OC)c(OC)c2)[C@@H]1OC	RS4-11	cell growth or viability, trypan blue	–	72 h	63.7 µM
CC1(C)CCC(CN2CCN(c3ccc(C(=O)NS(=O)(=O)c4ccc(NCC5COCCO5)c([N+](=O)[O-])c4)c(N4CCCOc5nc6[nH]ccc6cc54)c3)CC2)=C(c2ccc(Cl)cc2)C1 (stereo not shown)	PF-382	cell growth or viability, ATP luminescence	–	24 h	0.812 µM
C[C@@H]1Cc2c([nH]c3ccccc23)[C@@H](c2c(F)cc(/C=C/C(=O)O)cc2F)N1C12CC(C1)C2	MCF7/luciferase wild type	cell proliferation	–	–	0.0018 µM
CCOP(=O)(OCC)C(Cc1cccc(F)c1F)Nc1cccc(C)c1 (stereo not shown)	U-118-MG	cell growth or viability, MTT	–	48 h	48.6 µM
CC(=O)OC[C@@]12CCC[C@@](C)(CO)[C@H]1CC[C@@]13C[C@@H](C[C@H](O)[C@H]12)[C@H](C)C3=O	HBE	cell growth or viability, MTT	–	–	> 20 µM
CC(C)c1cccc(C(C)C)c1-n1ccn(-c2c(C(C)C)cccc2C(C)C)c1=[Se].[Cl][Au]	LoVo	cell growth or viability, MTT	–	72 h	2 µM
CCNC(=O)OCc1c(COC(=O)NCC)c(-c2ccc(OC)cc2)n2c1Cc1ccccc1-2	CL25	cell growth, Alamar Blue	–	72 h	17.1 ± 3.2 µM
Cc1ccc(-c2nc(-c3cccnc3)[nH]c2-c2ccc(C)cc2)cc1	L929	cell growth or viability, SRB	–	–	88.4 µM
CC(=O)OC[C@]1(C)CCC[C@]2(COC(C)=O)[C@@H]1CC[C@@]13C[C@@H](C[C@H](O)[C@H]12)[C@@H](C)C3=O	HBE	cell growth or viability, MTT	–	–	> 20 µM
O=C(Cc1ccc2ccccc2c1)N[C@H](Cc1ccccc1)C(=O)N[C@H](Cc1ccc(O)cc1)C(=O)N[C@H](Cc1ccccc1)C(=O)N[C@H](Cc1ccc(OP(=O)(O)O)cc1)C(=O)O	T98G	cell growth or viability, MTT	–	–	283 µg/mL
Cc1cc(C=O)cc(C)c1Oc1cc(Nc2ccc(C#N)cn2)nc2ccncc12	HuCC-A1	–	–	48 h	> 126 µM

SMILES	cell line	test	system	setting	IC50
Cc1ccc2c(c1)[n+]([O-])c(C#N)c(-c1ccco1)[n+]2[O-]	KB	cell growth or viability, resazurin	–	72 h	4.38 µM
COc1c(C)c(OS(=O)(=O)c2ccccc2)c(C)c2c1C(=O)CC(c1ccccc1)O2 (stereo not shown)	FaDu	cell growth or viability, SRB	–	72 h	> 50 µM
O=C(Nc1ncnc2c1ncn2[C@@H]1O[C@H](CO)[C@@H](O)[C@H](F)[C@H]1O)c1ccccc1	Molt4/C8	cell growth or viability	–	–	81 µM
N=C(N/N=C/c1ccc2ccccc2c1)N/N=C/c1ccc2ccccc2c1	KP-4	cell growth or viability, crystal violet	–	72 h	122 µM
CC(=O)O[C@@H]1CC[C@@]2(C)[C@@H](CC[C@]3(C)[C@@H]2C(=O)C=C2[C@@H]4[C@@H](C)[C@H](C)CC[C@]4(C)CC[C@]23C)[C@@]1(C)C(=O)NCCNC(=O)CCCCCBr	HBE	cell growth or viability, MTT	–	48 h	13.1 µM
N[C@@H](CCC(=O)N[C@@H](CS[Se]Cc1ccc(-c2cc(C(F)(F)F)nn2-c2ccc(S(N)(=O)=O)cc2)cc1)C(=O)NCC(=O)O)C(=O)O	WM35 melanoma cells	cell viability, MTS	–	24 h, radial stage	52.6 ± 3.8 µM
C[C@@H]1CC(=O)N(C2CCOCC2)N=C1c1ccc(NC(=O)N2Cc3ccncc3C2)cc1	MDA-MB-453	cell growth or viability, ATP luminescence	–	–	0.0027 µM
CCCCCCCCC=CCCCCCCCC(=O)OCC1OC(n2ccc(N)nc2=O)C(F)(F)C1O (stereo not shown)	AG6000 (gemcitabine-resistant A2780, dCK-deficient)	cell growth, SRB	–	72 h	91 ± 6 µM
CC(C)c1cccc(C(C)C)c1-n1c(Cl)c(Cl)n(-c2c(C(C)C)cccc2C(C)C)c1=[Se].[Cl][Ag]	LoVo	cell growth or viability, MTT	–	72 h	1.8 µM
CCCCCCC(=O)NCCNC(=O)[C@]1(C)[C@@H]2CC[C@]3(C)[C@H](C(=O)C=C4[C@@H]5[C@@H](C)[C@H](C)CC[C@]5(C)CC[C@]43C)[C@@]2(C)CC[C@H]1OC(C)=O	HBE	cell growth or viability, MTT	–	48 h	5.94 µM
CCCCCC(C)n1c(-c2cccnc2)nc(-c2ccc(C)cc2)c1-c1ccc(C)cc1 (stereo not shown)	L929	cell growth or viability, SRB	–	–	57.2 µM
COc1ccc(-c2cc(=O)c3c(O)cc(O[C@@H]4O[C@H](CO)[C@@H](O)[C@H](O)[C@H]4O)cc3o2)cc1OC	HCT-116 p53-/- colon cancer	cytotoxicity, resazurin reduction	–	72 h	28 ± 1.43 µM
Cc1c(C)n(-c2c(C(C)C)cccc2C(C)C)c(=[Se])n1-c1c(C(C)C)cccc1C(C)C.[Cl][Au]	human ovarian cancer cells	cell viability, MTT	–	72 h	1 ± 0.1 µM
Cc1ccc(CC(=O)N(CCCn2ccnc2)c2nc3ccccc3s2)c(C)c1	SW620 tumour organoids	cell viability	–	72 h, 2% Matrigel, 0.4% DMSO	28.3 µM
CC1(C)Cc2c(-c3ccccc3)c(-c3ccc(Cl)cc3)c(CC(=O)NCC(=O)O)n2C1	human Macrophage	PGE2 release, inhibitor	–	24 h, LPS-stimulated	0.47 µM
CCOC12C(O)C(OC)C3(O)CC(C1C3OC(=O)c1ccccc1)C13C(OC)CC(O)C4(COC)CN(C)C1C2C(OC)C43 (stereo not shown)	HBE	cell growth or viability, MTT	–	–	30.2 µM
CCCC(CCC)C(=O)[O][Pt]([NH2])([NH2])([Cl])([Cl])[O]C(=O)c1ccccc1OC(C)=O	LoVo	cell growth or viability, MTT	–	72 h	0.97 µM
O=[N][Fe]1([N]=O)[S](CCO)[Fe]([N]=O)([N]=O)[S]1CCO	N2a	cell growth or viability, CCK-8	–	24 h	9.8 µM

A few entries again:
SMILES	cell line	test	system	setting	IC50
N=C(N)NCCC[C@H](N)C(=O)N1CCC[C@H]1C(=O)N[C@H](CC(=O)N[C@@H](Cc1ccc(O)cc1)C(=O)O)c1cccc2ccccc12	MCF-7 (no HER2 overexpression)	–	–	–	> 50 µM
CCOP(=O)(OCC)C(Cc1c(F)c(F)c(Sc2ccc(OC)cc2)c(F)c1F)Nc1ccccc1 (stereo not shown)	T98G	cell growth or viability, MTT	–	48 h	36.8 µM
CC(C)Cc1ccc(C(C)C(=O)[O][Pt]([NH2])([NH2])([Cl])([Cl])[O]C(=O)CCCc2ccccc2)cc1 (stereo not shown)	BCPAP	cell growth or viability, MTT	–	72 h	0.08 µM
CC(C)c1cccc(C(C)C)c1-n1ccn(-c2c(C(C)C)cccc2C(C)C)c1=[Se].[Cl][Au]	LoVo	cell growth or viability, MTT	–	72 h	2 µM
COc1cc(/C=C/c2cc(C)n[nH]2)ccc1O	mouse Splenic lymphocyte	cell growth or viability, MTT	–	48 h	75 µM
CCn1cc(/C=C/c2sc3ccccc3[n+]2CC)c2ccccc21	HFF	cell growth or viability, MTT	–	24 h	> 20 µM
CC(=O)O[C@@H]1CC[C@@]2(C)[C@@H](CC[C@]3(C)[C@@H]2C(=O)C=C2[C@@H]4[C@@H](C)[C@H](C)CC[C@]4(C)CC[C@]23C)[C@@]1(C)C(=O)NCCNC(=O)CCCCC[P+](c1ccccc1)(c1ccccc1)c1ccccc1	HBE	cell growth or viability, MTT	–	48 h	> 30 µM
